Published values collected from several papers.
Compare with care: the assays were run in different laboratories. “And” joins repeats or separate records; there may be more than shown. ± gives the spread as reported.

Structure (SMILES) | organism | test | test system | setting | scale | measurement | value
O=C1C2CC3CC1CC(C(=O)N1CCN(c4ccc([N+](=O)[O-])c5ncccc45)CC1)(C3)C2 | Escherichia coli | Ames test | WP2 uvrA pKM101 | 0.05 µg/well, with S9 | reference: vehicle | revertant fold increase | 1
O=C(C1CCCN(Cc2ccc(Cl)cc2)C1)N1CCCCC1.O=C(O)C(=O)O (stereo not shown) | Trypanosoma cruzi | reporter mRNA translation, inhibitor, measured: Renilla luciferase mRNA | cell-free extract | concentration not given, test 2 | reference: positive over negative control | translation activity | 136% and 105%
O=C1NC2(CC2)COc2ncc(F)cc2[C@H]2COCCN2c2ccn3ncc1c3n2 | Salmonella typhimurium | Ames test | TA100 | 500 µg/plate, 48 h, together with: without S9 | – | revertant colonies | 71 ± 9 revertants/plate
COc1ccc2c(c1)C(C)(C)C(/C=C/C1=C(Oc3ccc(C(=O)NCCCCOc4cc(CN(Cc5ccccn5)Cc5ccccn5)cc(CN(Cc5ccccn5)Cc5ccccn5)c4)cc3)C(=C/C=C3/N(CCCCS(=O)(=O)[O-])c4ccc(OC)cc4C3(C)C)CCC1)=[N+]2CCCCS(=O)(=O)[O-].O=[N+]([O-])[O-].O=[N+]([O-])[O-].[99Tc+].[C-]#[O+].[C-]#[O+].[C-]#[O+].[Zn+2] | Staphylococcus aureus | – | BALB/c mice, bacterial myositis, adipose | 12 h | – | tissue uptake | 0.45 %ID/g
CC(C)OCCOCc1ccc(OCC(O)CN(N=O)C(C)C)cc1 (stereo not shown) | Salmonella typhimurium | Ames test | TA1535 | 5000 µg/plate, 30 % rat S9 | reference: solvent control | revertant fold increase | 1.5 fold
CC(=O)N(C)CCN1CCN(c2cnc3c(cc(C(=O)NCc4ccc(Cl)cc4)c(=O)n3CC(=O)N3CC(C)(F)C3)n2)C1=O | human cytomegalovirus | – | MRC-5, AD169-GFP | – | reference: CC50 over EC50 | selectivity ratio | > 22.9
CCN(CC)CC#CCNc1ccnc2cc(Cl)ccc12 | Salmonella typhimurium | mini-Ames test | TA1535 | 250.0 µg/well, without S9 | – | revertants | 4 revertants/well and 0 revertants/well
CC(C)(C)NCC(SS(=O)(=O)O)c1ccccc1 (stereo not shown) | Schistosoma mansoni | perfusion day 57 | infected Swiss Webster mice | 200 mg/kg daily x4, dosing from day 7 | – | body weight | 34.8 g and 33.2 g and 31.1 g and 30.5 g and 34.3 g
COc1cc(CN(C)CCc2ccccc2)ccc1OCc1ccccc1 | Trypanosoma cruzi | reporter mRNA translation, inhibitor, measured: Renilla luciferase mRNA | cell-free extract | concentration not given, test 2 | reference: positive over negative control | translation activity | 122% and 130%
COC(=O)Nc1nc2cc(C(O)c3ccc(F)cc3)ccc2[nH]1 (stereo not shown) | Salmonella typhimurium | Ames preincubation test | TA1535 | 218.8 µg/plate, without S9 | – | revertants | 13.3 revertants/plate

Repeated from above:
Structure (SMILES) | organism | test | test system | setting | scale | measurement | value
CC(C)OCCOCc1ccc(OCC(O)CN(N=O)C(C)C)cc1 (stereo not shown) | Salmonella typhimurium | Ames test | TA1535 | 5000 µg/plate, 30 % rat S9 | reference: solvent control | revertant fold increase | 1.5 fold
